Results pooled from the literature.
Each numbered part is a random draw from the data of one study; scales do not carry over between parts.

Series 1 — method: protein binding microarray; molecule type: double-stranded DNA, one strand shown; matrix: in vitro; concentration: not given; reference: not given; direction: higher = stronger binding
Target: Histone acetyltransferase KAT6A, winged helix 2, GST fusion (KAT6A, Homo sapiens, UniProt Q92794, residues 85-181)
Notes: 8-mer, flanks averaged, mean of 2 arrays, mostly near background
Target sequence (chain): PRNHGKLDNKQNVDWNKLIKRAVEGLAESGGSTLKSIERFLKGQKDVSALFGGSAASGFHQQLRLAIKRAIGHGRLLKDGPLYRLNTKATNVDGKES
| Sequence | E-score |
| --- | --- |
| CAATAACA | -0.213 |
| AACCTTCT | 0.072 |
| AACGACGA | 0.0377 |
| GTCTTAAC | -0.132 |
| CCGATGAA | 0.103 |
| ACAGACGC | 0.0144 |
| GGAATACC | -0.0288 |
| CAACTGTC | -0.0694 |
| CAGCATCC | -0.0115 |
| CTGTCGCC | -0.0823 |
| TTGACCAA | -0.0372 |
| TATAACCA | -0.199 |
| ACGCCCGC | 0.092 |
| CAATAGGG | -0.014 |
| CCAGATCC | 0.0978 |
| GGTAGGCA | -0.00166 |
| GTGTACAA | 0.0121 |
| AACACACC | 0.0814 |
| ACTTCAGC | 0.0106 |
| ACCTAACT | 0.0744 |
| AACGGAGG | 0.0488 |
| CAGACGCG | 0.0223 |
| CTTTCGTC | 0.0384 |
| AAGTGAGC | -0.104 |
| GATGCGAC | 0.0823 |

Series 2 — method: RNAcompete; molecule type: RNA; matrix: in vitro; concentration: 20 nM; notes: 7-mer, probes averaged, single round; reference: mean of 7-mers; direction: higher = stronger binding
Target: PABPC1L2, full length, GST fusion (mouse, UniProt A0ABA7IW68)
Construct (chain): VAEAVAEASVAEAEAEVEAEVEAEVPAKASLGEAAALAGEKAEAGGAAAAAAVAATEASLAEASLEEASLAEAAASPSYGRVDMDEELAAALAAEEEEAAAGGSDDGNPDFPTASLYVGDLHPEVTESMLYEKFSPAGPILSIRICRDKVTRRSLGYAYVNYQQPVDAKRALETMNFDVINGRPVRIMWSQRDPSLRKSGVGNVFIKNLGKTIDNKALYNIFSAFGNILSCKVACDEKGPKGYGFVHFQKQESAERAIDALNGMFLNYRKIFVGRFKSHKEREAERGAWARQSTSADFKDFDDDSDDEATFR
| Sequence | 7-mer Z-score |
| --- | --- |
| GGCCCCA | -0.364 |
| AAACUGA | 1.02 |
| CAUCAAA | 0.555 |
| AUGAAGA | 0.0986 |
| CCAGACC | 0.0152 |
| UAGGGUA | 0.0587 |
| UUGAUUG | -0.139 |
| CUAAUUG | -0.269 |
| CCUCCAA | -0.246 |
| UACCGGA | -0.199 |
| UGUCUAC | -0.371 |
| GAUCCUG | -0.229 |
| AACAUGA | 0.871 |
| ACUUCGC | -0.286 |
| GCAUGGA | 0.206 |
| UCAAAAA | 16.4 |
| GGGCGUU | 0.0678 |
| GGGGUGU | 0.0859 |
| GCCGCGC | -0.354 |
| UCCGACA | -0.0337 |
| AACUGGU | 0.148 |
| GCGCCUG | -0.238 |
| UCGGUGG | 0.000733 |
| GCGGAGA | 0.363 |
| AGUACUU | -0.228 |

Series 3 — method: aptamer microarray, sandwich; molecule type: DNA with 2'F-ANA; matrix: in vitro; concentration: 200 nM; added: Cy3 exosite-II aptamer, 400 nM; direction: higher = stronger binding; sequence: GGTTGGTGTGGTTGG
Target: Prothrombin, mature alpha-thrombin (F2, Homo sapiens, UniProt P00734)
Notes: whole 15-mer aptamer, many near background
| Modification | mean fluorescence intensity |
| --- | --- |
| 2'F-ANA at 1 2 6 9 13 14 | 52.6 a.u. |
| 2'F-ANA at 1 2 3 6 8 13 15 | 233 a.u. |
| 2'F-ANA at 1 2 4 7 8 10 11 12 14 15 | 47.1 a.u. |
| 2'F-ANA at 1 2 5 6 7 10 11 12 13 | 47.6 a.u. |
| 2'F-ANA at 1 4 10 12 | 60 a.u. |
| 2'F-ANA at 2 4 6 7 8 9 10 11 12 13 15 | 87.7 a.u. |
| 2'F-ANA at 4 6 7 8 10 | 102 a.u. |
| 2'F-ANA at 3 5 8 9 13 14 15 | 56 a.u. |
| 2'F-ANA at 1 4 5 6 8 10 14 15 | 50.2 a.u. |
| 2'F-ANA at 2 3 4 8 10 11 14 15 | 152 a.u. |
| 2'F-ANA at 1 2 5 10 11 12 14 15 | 50 a.u. |
| 2'F-ANA at 1 2 3 8 10 13 | 62.4 a.u. |
| 2'F-ANA at 3 7 9 10 11 12 13 14 15 | 428 a.u. |
| 2'F-ANA at 2 6 7 9 12 13 | 459 a.u. |
| 2'F-ANA at 1 2 3 5 6 7 9 11 12 | 99.9 a.u. |
| 2'F-ANA at 1 4 8 11 14 | 50.9 a.u. |
| 2'F-ANA at 1 3 6 7 8 9 10 12 13 15 | 215 a.u. |
| 2'F-ANA at 1 2 6 13 14 | 50.1 a.u. |
| 2'F-ANA at 2 10 11 14 15 | 74.5 a.u. |

Series 4 — method: RNA Bind-n-Seq; molecule type: RNA; matrix: in vitro; concentration: 1 µM; notes: whole 134-nt RNA, ends assumed; added: 150 mM KCl; reference: input library; direction: higher = stronger binding
Target: Ras GTPase-activating protein-binding protein 1, C-terminal RGG region (G3BP1, Homo sapiens, UniProt Q13283)
UniProt Q13283, sequence (whole entry, looked up): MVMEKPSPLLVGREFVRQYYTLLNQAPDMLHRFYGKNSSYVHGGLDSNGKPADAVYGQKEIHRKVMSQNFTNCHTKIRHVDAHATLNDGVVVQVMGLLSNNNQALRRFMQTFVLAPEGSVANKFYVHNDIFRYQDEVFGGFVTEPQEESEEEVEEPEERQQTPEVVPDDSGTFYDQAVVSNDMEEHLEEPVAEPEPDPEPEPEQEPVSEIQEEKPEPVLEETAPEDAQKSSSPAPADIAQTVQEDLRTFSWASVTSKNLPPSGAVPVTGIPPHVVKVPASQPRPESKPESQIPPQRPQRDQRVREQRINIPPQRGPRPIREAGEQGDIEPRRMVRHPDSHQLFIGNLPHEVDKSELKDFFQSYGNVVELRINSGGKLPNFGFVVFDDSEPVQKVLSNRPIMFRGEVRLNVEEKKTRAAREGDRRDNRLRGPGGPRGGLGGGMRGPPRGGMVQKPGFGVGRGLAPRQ
Shared flanks, not repeated: GGGAGUUCUACAGUCCGACGAUC … UGGAAUUCUCGGGUGUCAAGG
| Sequence | log2 enrichment |
| --- | --- |
| AAGUCCUGUGCUACACAUCGUAUGUACCGAAUCGGGAAAAGGGAAAAGGGAAAAGGGAAAGUAUUAUGUUACGCCGUUCGGAUCUGCACU | 0.652 |
| UCAAGUCCUGUGCUACACAUCGUAUGUACCGAAUCGGAGGUUUUUUUGGAAAGGAAAGUAUUAUGUUACGCCGUUCGGAUCUGCACUUCC | -1.41 |
| AAGUCCUGUGCUACACAUCGUAUGUACCGAAUCGGGGUUUGGGGUUUGGGGUUUGGAAAGUAUUAUGUUACGCCGUUCGGAUCUGCACUU | -0.64 |
| AAGUCCUGUGCUACACAUCGUAUGUACCGAAUCGGGAAAAAAAGGGUUUGGGUGGGAAAGUAUUAUGUUACGCCGUUCGGAUCUGCACUU | 1.29 |
| AAGUCCUGUGCUACACAUCGUAUGUACCGAAUCGGUUUGGAAAAAGGAAAAAAAGGAAAGUAUUAUGUUACGCCGUUCGGAUCUGCACUU | -1.86 |
| UCCUGUGCUACACAUCGUAUGUACCGAAUCGGGAAAAAAAGGAAAAAAAGGAAAAAAAGGAAAGUAUUAUGUUACGCCGUUCGGAUCUGC | -1.05 |
| CUGUGCUACACAUCGUAUGUACCGAAUCGGGGCCCCCCGGGGCCCCCCGGGGCCCCCCGGGAAAGUAUUAUGUUACGCCGUUCGGAUCUG | -2.15 |
| UCAAGUCCUGUGCUACACAUCGUAUGUACCGAAUCGGAAGGGGAAGGGAAGGGGAAAGUAUUAUGUUACGCCGUUCGGAUCUGCACUUCC | 1.58 |
| CUCAAGUCCUGUGCUACACAUCGUAUGUACCGAAUCGGGAAGGAAGGAAGGGGAAAGUAUUAUGUUACGCCGUUCGGAUCUGCACUUCCA | -1.03 |
| GCAGGAAGUAAAAACAAAUGGAAAUGCUCCGGAUAGUGGCAGGGGUGGGGGUUGCUAAGGAAAGGGUGGGAUGGGAGUGGGUAAAGAGUU | 2.04 |
| UCCUCAAGUCCUGUGCUACACAUCGUAUGUACCGAAUCGGGGAGGAGGAGGAAAGUAUUAUGUUACGCCGUUCGGAUCUGCACUUCCAGC | -1.22 |
| ACCAUGCAGGUGGGCAUCUUUGGGAAGUGGGGCAAGGGGGGGAUAGGGAGGGGGGUAACACUUUGGGAUCAGGUGGUCCCAGGUCGUUUC | 1.84 |
| UCAAGUCCUGUGCUACACAUCGUAUGUACCGAAUCGGAAAGGGGAAAGGAAAGGGAAAGUAUUAUGUUACGCCGUUCGGAUCUGCACUUC | -1.8 |
| CUGUGCUACACAUCGUAUGUACCGAAUCGGGCCCCCCCGGGGCCCCCCCGGGCCCCCCCGGAAAGUAUUAUGUUACGCCGUUCGGAUCUG | -1.61 |

Series 5 — method: RNA Bind-n-Seq; molecule type: RNA; matrix: in vitro; concentration: 365 nM; reference: no-protein control; direction: higher = stronger binding
Target: RNA binding protein fox-1 homolog 2, RRM domain, GST-SBP tag (RBFOX2, Homo sapiens, UniProt O43251-10, residues 100-194)
Notes: natural RNA segment, single round, ends assumed
Shared flanks, not repeated: GGGAGUUCUACAGUCCGACGAUC … UGGAAUUCUCGGGUGCCAA
Target sequence (chain): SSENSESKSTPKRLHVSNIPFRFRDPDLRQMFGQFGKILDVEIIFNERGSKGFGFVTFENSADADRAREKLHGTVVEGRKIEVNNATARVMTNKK
| Sequence | RBNS enrichment (R) |
| --- | --- |
| AGGUUGUUGCUUUAUUUUUUUAAGGCUCUGGAGUGUUGUGUAUGGUUUCUUUUCACAUCCCAGCCUCCCAUGGGCACUUCUAAGAAGAGAGGGGAUUUCUUGGAAAAGGA | 0.3 |
| UCCCCACCAUCCUGGGGAAGUGAUGGUGUGGCCAGGCAGUUAUAGAUUAAAGGCCUGUGAGUACUGCUGAGCUUGGUGUGGCUUGGUGUGGCAGAAGGCCUGGCCUAGGA | 0.848 |
| UGUGUACACUGUUUGGUGCCCCUUCCCCACCAGUGCCUCCCUUCUCUUUCUUGGUUUCCAGAGGAACUGAGCCUGAGUGGGCUCUGCCAGUGCCUAGUGGAACUGUCCAC | 0.519 |
| AAAUGAACUUCAGGCUUGAUACAGAUCUUCUCCCUGUUGGUAUUACAUAUAUAGAGAUAAUUCUCAAUGCCUAAUUAAUAUACUUAUACAUUUGUUAAGGUAUGCGCAUA | 0.278 |
| UUUUUCUUUCCCUCCUGCCUCUUCCCUUCCCACUCCCUGGUUCAACACAGGUAAAAUGGUUACCCUCCCUUCUUUCCUCCCCUCUGCCUUCAUGGAUCACCAACUCACGU | 0.785 |
| UCUGAUAGUUGGGAUAAAGGGCUCAGCUCAGUUUACCUGUUACAAUUCAUAGUAUAUUGUUGUUUGUGACAUGAACUCCAAGAUACACAAAGGAGCCCAGGGAACUAUGU | 1.29 |
| ACAGGAGCAGCCCACCCAGCAGAAAUACAAUCCGAGCUACAAAGCAUGGGAAAAAGAGACUCUUUUAGGAUCAGAUCUGUGAGCACGUUGGCGAGGAAAAACAAAACAAA | 2.07 |
| AGCCAGAGCAGAGAGGGCUGCUGACUUCCGUGUGGAGCAGAGAGGCCUGAGGGCCUCCUAAAAGGUUUAAAUGUCCACGCCUCUCCAGUUGCUGAAGUAGGGUCUGAGAG | 0.801 |
| AAAUUUUUAAUUAAUUUCAAAGCUUCCUCUGGCCAGGUAGACUUUUGUAUACAGACCAGGUGAGAGCCCUUUUGCCUUAGUGUGAAAAUGUAACAUUUUAUGCUUUUAAA | 0.563 |
| AUUUUUCUACUUUCUUUUUGCUGUUGAUGAAUUGUUUCAUUAUUAAAUAUAUGCAUGUAUCAAAGCUUUCAUACUCCAUGUGUCAUUUCUAAUUGUAUCCCAAACAUUAG | 2.4 |
| AGGAGACUGAGGCAAGAGCCUCGUAGCAUUAGCUGCAUAGCAAGUUUGAAACCAGUCUGCACUACAUGAGGCUUUGUCUCAAAAUGAAAAAGUUUGAGAUUAUCCUAGGC | 0.959 |
| GCAGGCCAGAGGGUCAGCUUGUGUUUUAUUUUCUGAUUUCUCCUGCAUGCUUUCUGGAGAUGAGGAUUUUUUGUCAGGUAGCUAGGAGAGCACUGCCACCUUGUGUCCAU | 26 |

Repeated from above (series 1):
| Sequence | E-score |
| --- | --- |
| CAATAACA | -0.213 |
| AACCTTCT | 0.072 |
| AACGACGA | 0.0377 |
| GTCTTAAC | -0.132 |
| CCGATGAA | 0.103 |
| ACAGACGC | 0.0144 |
| GGAATACC | -0.0288 |
| CAACTGTC | -0.0694 |
| CAGCATCC | -0.0115 |
